Measurements collected from several papers.
Each line is one published result; not all experiments were run side by side. Values joined by “and” are separate records of one study, mostly repeats; a detail may differ. ± marks the error that the study gave.

SMILES	assay	test system	setting	how to read	endpoint	value
CCCCCN(C)CCC(O)(P(=O)(O)O)P(=O)(O)OP(=O)(O)OC[C@H]1O[C@@H](n2ccc(N)nc2=O)C(F)(F)[C@@H]1O (some centres unmarked)	–	HEPES buffer	pH 7.4, 37 °C	–	hydrolysis rate constant	0.09 h⁻¹
CCO[C@H]1CCN(Cc2c(OC)cc(C)c3[nH]ccc23)[C@H](c2ccc(C(=O)O)cc2)C1	–	human moderate hepatic impairment, plasma	oral, 200 mg single dose, mean	–	total Cmax	3.31 µg/mL
COc1ccnc(C(=O)N[C@H]2COC(=O)[C@H](Cc3ccccc3)[C@@H](O)[C@H](C)OC2=O)c1O	aerobic dark soil incubation	sandy loam soil	20 °C, modelling endpoint	–	DT50	86.1 days
Cc1ccc(Sc2ccccc2N2CCNCC2)c(C)c1	–	elderly men	oral, 10 mg single	–	any adverse event	12.5%
CCC(C)n1ncn(-c2ccc(N3CCN(c4ccc(OCC5COC(Cn6cncn6)(c6ccc(Cl)cc6Cl)O5)cc4)CC3)cc2)c1=O (centres unmarked)	–	healthy human volunteers	oral, 200 mg, event Fatigue, continued dosing	–	adverse events	0%
CC(C)(C(=O)N1CCOc2c(C#N)cncc2C1)C(F)F	measured: cutaneous vasculitis	human, both sexes	oral, 20 mg twice daily, 14 days, multiple ascending dose	–	subjects with TEAE	0%
CS(=N)(=O)c1ccc(C(F)(F)F)cc1 (centres unmarked)	–	human liver microsomes	–	baseline: hepatic blood flow	metabolic stability	< 23%
C=CC(=O)Nc1cc(Nc2nccc(-c3cn(C)c4ccccc34)n2)c(OC)cc1N(C)CCN(C)C	storage stability	human dried blood spots	5 h, on ice, low QC level	–	recovery	90.2%
Cc1cccc(CNC(=O)c2cn(CCNC(=O)c3ccccc3Sc3c([N+](=O)[O-])ncn3C)c3cc4c(cc3c2=O)OC(F)(F)O4)n1	–	Sprague-Dawley rat, male, plasma	intramuscular, 10 mg/kg of parent drug	–	bioavailability	30.2 ± 7.3%
O=C(Nc1nc2cccc(-c3ccc(CN4CCS(=O)(=O)CC4)cc3)n2n1)C1CC1	measured: gastrointestinal pain	human rheumatoid arthritis patients	oral, 150 mg once daily, 4 weeks, regardless of relatedness	–	treatment-emergent adverse events	0%
COc1ccc([C@@H](O)c2cc(-c3ncnc4cc(N5CCOCC5)ccc34)c(F)cc2Cl)nn1	geometric mean	healthy volunteers, urine	oral, 100 mg, fasted oral suspension	–	renal clearance	2.03 mL/min
O=C(Nc1cnccc1Cl)N1CCN(Cc2ccc3c(c2)OC(F)(F)O3)CC1	multiple ascending dose	elderly men and women	100 mg, treatment-emergent adverse events	–	postural dizziness incidence	33.3%
COc1ccc(C[C@@H](C)[C@@H](C)Cc2ccc(OC)c(OC)c2)cc1OC	–	beagle dog, male, plasma	oral, 100 mg/kg/day, day 1	–	AUC(0-t)	14 ± 5.52 µg·h/mL
Nc1ncnc2c1ncn2[C@H]1C[C@@H]2OP(=O)(O)OC[C@H]3O[C@@H](n4cnc5c(N)ncnc54)C[C@@H]3OP(=O)(O)OC[C@H]2O1	–	non-tumor-bearing mice, blood	intravenous, 1 mg/kg, toxicity study	–	eosinophil percentage	6.58 ± 3.12%
Cc1cc(Nc2ncnc3ccc(NC4=NC(C)(C)CO4)cc23)ccc1Oc1ccn2ncnc2c1	–	human, plasma	oral, 300 mg, day 1, single dose alone	–	CL/F, mean	173 L/h
OCc1nc2ccc(NCc3ccc(C(F)(F)F)cc3)cc2[nH]1	–	Balb/c mouse, male, liver	intravenous, 1 mg/kg, 6 h	baseline: tissue over plasma	tissue/plasma ratio	11.5 ± 3.7
N[C@@H](CC(=O)O)C(=O)OC(C(=O)O)c1ccccc1[N+](=O)[O-].O=C(O)C(F)(F)F (mixture of isomers)	1H NMR, dark	50 mM sodium phosphate	concentration not given, pH 5.8, room temperature, 12.5% DMSO-d6	–	hydrolysis half-life, B isomer	23 ± 2 h
FC(F)(F)c1ccc(CNc2ccc(Cc3c[nH]c4ncc(Cl)cc34)cn2)cn1	measured: memory impairment	human, advanced solid tumours, non-TGCT cohort	oral, 1000 mg/day, grade 3 or higher	–	treatment-related adverse events	0%
Cc1ccn2c(CNc3ccc(F)cc3)c(-c3ccccn3)nc2c1	–	peritoneal macrophages, Swiss mice	5 days, 5% fetal calf serum	–	CC50	> 63.1 µM

SMILES	assay	test system	setting	how to read	endpoint	value
O=C1NC(=O)/C(=C/c2ccc3ncnc(N4CCCCC4)c3n2)S1	–	NSG mice	dose not given, day 3	–	body weight	24.1 g and 18.5 g and 16.7 g and 22.5 g
CNCc1ccc(-c2[nH]c3cc(F)cc4c3c2CCNC4=O)cc1	–	human patients	oral, 600 mg twice daily, grade 2	–	malignant neoplasm progression incidence	0%
Cc1cc(Nc2ncc(Cl)c(Nc3ccccc3S(=O)(=O)C(C)C)n2)c(OC(C)C)cc1C1CCNCC1	–	human, plasma	oral, 450 to 600 mg, cycle 1 day 1	–	AUC(0-24h) increase	28%
OC[C@H]1O[C@@H](c2ccc(Cl)c(Cc3ccc(O[C@H]4CCOC4)cc3)c2)[C@H](O)[C@@H](O)[C@@H]1O	–	Japanese type 1 diabetes patients, blood	2.5 mg, day 28	baseline: baseline	change in LDL/HDL ratio	-0.05
COCCOc1cnc2ccn([C@H](C)c3nnc4c(F)cc(-c5cnn(C)c5)cn34)c(=O)c2c1	–	patients, plasma	oral, 100 mg twice daily, day 1 predose, 200 per day	–	Ctrough	1.58 µg/mL
O=C(O)CCC(=O)O.[2H]C([2H])([2H])Oc1cc(C)c2[nH]ccc2c1CN1CC[C@@H](C2CC2)C[C@H]1c1ccc(C(=O)O)cc1	–	healthy Chinese subjects	400 mg, single ascending dose	–	TEAE proteinuria	0%
Cc1nc(-c2ccc(OCC(C)C)c(C#N)c2)sc1C(=O)O	–	healthy Chinese subjects	oral, 40 mg single, fasting	–	participants with AEs grade 1 or above	12.8%
C[C@@H]1OC(=O)[C@H](Cc2ccccc2)[C@H]1O	aerobic dark soil incubation	sandy loam soil	20 °C, modelling endpoint	–	DT50	1.45 days
N#Cc1ccc2c(c1)[C@H]1CCCN(C(=O)c3ccc4[nH]cnc4c3)[C@H]1C2	–	human	10 mg, day 7	baseline: baseline	ACTH level change	1.1 pmol/L
O=C(O)c1cccc(C(=O)O)c1	–	betaine/propylene glycol DES-water	DES mass fraction 0.10	–	apparent dissolution enthalpy	25.8 kJ/mol
CCc1cc(C(=O)NC)c2nccc(N3CCc4c(cc(Cn5ccnc5)cc4-c4cn(C)nc4C(F)(F)F)C3=O)c2c1	–	Sprague Dawley rat	oral, 50 mg/kg once daily, 7 days	baseline: vehicle	heart weight change	-0.45%
N#C[C@@]1(c2ccc3c(N)ncnn23)O[C@H](CO)[C@@H](O)[C@H]1O	–	beagle dog male, plasma	oral capsule, 6.5 mg/kg, 3 h	–	plasma concentration	6.52 µM
C=CC(=O)N1CCC(c2ccc(C(N)=O)c(-c3ccc(Oc4ccccc4)cc3)n2)CC1	–	relapsed/refractory mantle cell lymphoma patients	oral, dose not given, part, all doses, CTCAE v4.03	–	number of TEAEs	45
CN(C(=O)n1cnc(-c2ccc[n+]([O-])c2)c1)[C@H]1CC[C@H](O)CC1	–	rat, hippocampus	oral, 10 mg/kg daily for 5 days, 4 h	–	tissue concentration	14.4 ± 0.7 ng/g
C[C@H]1Oc2cc(cnc2N)-c2c(nn(C)c2C#N)CN(C)C(=O)c2ccc(F)cc21	population PK	patients with mild renal impairment, plasma	oral, 100 mg, mean, single dose	–	clearance	136 mL/min
OC[C@H]1O[C@@H](c2ccc(F)c(Cc3cc4ccccc4s3)c2)[C@H](O)[C@@H](O)[C@@H]1O	–	Japanese patients, type 1 diabetes	oral, 50 mg/day, onset day 10	baseline: patients	hypoglycaemia-related adverse event	5%
Cn1cc(-c2cn3nccc3c(-c3cnn([C@]4(CC#N)C[C@@H](C#N)C4)c3)n2)cn1	–	healthy humans fasted, plasma	30 mg single dose, geometric mean	–	apparent volume Vz/F	903 L
COc1cccc(OC)c1-c1cc(C(=O)NC2(C(=O)O)C3CC4CC(C3)CC2C4)nn1-c1ccc(C(=O)N(C)CCCN(C)CCCN(C)C(=O)CN2CCN(CC(=O)[O-])CCN(CC(=O)[O-])CCN(CC(=O)[O-])CC2)cc1C(C)C.[177Lu+3] (centres unmarked)	–	mouse HT-29 xenograft	168 h, biodistribution	baseline: tumour over small intestine	tumour-to-small intestine ratio	34
CCCCC[C@H](O)CC[C@@H]1[C@H]2Cc3cccc(OCC(=O)O)c3C[C@H]2C[C@H]1O	LC-MS/MS	Japanese IPAH/HPAH patients, plasma	inhaled, 54 µg	–	geometric mean AUC(0-last)	0.00091 µg·h/mL

SMILES	assay	test system	setting	how to read	endpoint	value
N#CN1C[C@H](n2nc(-c3ccc(Oc4ccc(Cl)cn4)cc3)c(C(N)=O)c2N)CCC12CC2	–	human, fed, plasma	oral, 600 mg	–	AUC(0-24h)	11.4 ± 3.07 µg·h/mL
NCCONC(=O)[C@@H]1CC[C@@H]2CN1C(=O)N2OS(=O)(=O)O	–	human, male, urine	intravenous infusion, 2 g multiple doses, day 9	baseline: dose	cumulative urinary excretion (0-24 h)	87.1%
CCN1/C(=C/C(C)=O)Sc2ccc(F)cc21	–	cynomolgus monkey	oral, 10 mg/kg, 24 h post-dose	–	heart rate	97 ± 8 beats/min
COc1ccc2c(c1)CN(C(=O)CCN1CCC(Cc3ccccc3)CC1)CC[S@@+]2[O-]	telemetry	conscious dog	intravenous, 4 mg/kg, 24 h	–	heart rate	71 ± 4 beats/min
CCO[C@H]1CCN(Cc2c(OC)cc(C)c3[nH]ccc23)[C@H](c2ccc(C(=O)O)cc2)C1	–	PNH patients, active haemolysis	oral, 50 mg, treatment	–	incidence of pyrexia	0%
CC(=O)CC(c1ccccc1)c1c(O)c2ccccc2oc1=O (centres unmarked)	–	Sprague-Dawley rat, male, plasma	oral, 0.3 mg/kg/day, 1 week, without PNS	–	Vz/F	0.233 ± 0.0147 L/kg
Cc1ccc([C@@H]2O[C@H](CO)[C@@H](O)[C@H](O)[C@H]2O)cc1Cc1ccc(-c2ccc(F)cc2)s1	–	Japanese type 2 diabetes patients	25 mg, day 2, 24 h urine collection	baseline: baseline	urinary potassium excretion change	-9.47 mEq
CC(C(=O)NCC(=O)NCC(CNC(=O)CNC(=O)C(C)N1CCN(CC(=O)[O-])CCN(CC(=O)[O-])CCN(CC(=O)[O-])CC1)(CNC(=O)CNC(=O)C(C)N1CCN(CC(=O)[O-])CCN(CC(=O)[O-])CCN(CC(=O)[O-])CC1)CNC(=O)CNC(=O)C(C)N1CCN(CC(=O)[O-])CCN(CC(=O)[O-])CCN(CC(=O)[O-])CC1)N1CCN(CC(=O)[O-])CCN(CC(=O)[O-])CCN(CC(=O)[O-])CC1.[Gd+3].[Gd+3].[Gd+3].[Gd+3] (centres unmarked)	LC-ICP-MS	human plasma	pH 7.4, 37 °C	–	dissociation rate	not detected
Cc1cc(NC2CCN(C(=O)OC3CCN(C(=O)/C=C/CN(C)C)C3)CC2)n2ncc(C(C)C)c2n1 (centres unmarked)	Phase I dose escalation CTCAE v4.0, measured: Dyspepsia	patients with advanced solid tumours	dose not given, all dose schedules any grade	–	patients with adverse event	6%
Cc1ccc(-c2cc(C(F)(F)F)nn2-c2ccc(S(N)(=O)=O)cc2)cc1	–	rat, stomach	concentration not given, 4 h	baseline: indomethacin	ulcer index	26.9%
O=C1NCCc2nc(OCc3cccc(F)c3)ccc21	measured: Convulsions	Sprague-Dawley rat male	oral, 100 mg/kg, 30 min	direction not given	Irwin test score	0
C=CCN1CC(=O)N2[C@@H](Cc3ccc(O)cc3F)C(=O)N(Cc3cccc(N4CC(N5CCN(CC)CC5)C4)n3)C[C@@H]2N1C(=O)NCc1ccccc1	measured: Vomiting	advanced solid tumour patients	oral, 100 mg twice daily, expansion part, any grade	–	treatment-related adverse events	55.6%
CC(C)c1nc(N(C)S(C)(=O)=O)nc(-c2ccc(F)cc2)c1/C=C/[C@@H](O)C[C@@H](O)CC(=O)O	measured: diarrhoea	healthy men	oral, dose not given, 8 days, treatment-emergent, crossover trial	–	subjects with adverse event	0%
N#Cc1ccc(-c2cnc3ccc(-c4ccc(C(=O)N5CCOCC5)cc4)cn23)cc1	measured: PR interval	healthy volunteers	oral, 10 mg, fed, time-averaged	–	placebo-corrected change from baseline	-1.5 ms
CO[C@H]1C[C@@H]2CC[C@@H](C)[C@@](O)(O2)C(=O)C(=O)N2CCCC[C@H]2C(=O)O[C@H]([C@H](C)C[C@@H]2CC[C@@H](OC(=O)NCCOCCOCCOCCOCCOCCOCCOCCOCCC(=O)N3CCc4cc(Cn5nc(-c6ccc7oc(N)nc7c6)c6c(N)ncnc65)ccc4C3)[C@H](OC)C2)C[C@@H](O)[C@H](C)/C=C(\C)[C@@H](O)[C@@H](OC)C(=O)[C@H](C)C[C@H](C)/C=C/C=C/C=C/1C	–	human, plasma	intravenous, 3 mg, cycle 1 day 1, arithmetic mean	–	Tmax	1 h
NC/C(=C\F)COc1cccc(Cn2c(=S)[nH]c(=O)c3[nH]cnc32)c1	–	dog liver microsomes	1 µM, 1 h	–	remaining compound	80%
NC1(C(=O)N[C@@H](CCO)c2ccc(Cl)cc2)CCN(c2nc[nH]c3nccc2-3)CC1	–	metastatic CRPC patients	400 mg b.i.d., any grade, treatment-related, with: enzalutamide 160 mg daily	–	incidence of Arthralgia	0%
CN1C(=O)[C@@H](NC(=O)c2nnc(Cc3ccccc3)[nH]2)COc2cccnc21	–	human, plasma	oral, 600 mg once daily, day 14, median	–	Tmax	4.02 h
